# Measured values from different studies.
# Values joined by “and” are separate records of one study, mostly repeats; a detail may differ. ± marks the error that the study gave.
# UCHL1: Ubiquitin carboxyl-terminal hydrolase isozyme L1 (UCHL1, Homo sapiens, UniProt P09936)
# UniProt P09936, sequence (whole entry, looked up): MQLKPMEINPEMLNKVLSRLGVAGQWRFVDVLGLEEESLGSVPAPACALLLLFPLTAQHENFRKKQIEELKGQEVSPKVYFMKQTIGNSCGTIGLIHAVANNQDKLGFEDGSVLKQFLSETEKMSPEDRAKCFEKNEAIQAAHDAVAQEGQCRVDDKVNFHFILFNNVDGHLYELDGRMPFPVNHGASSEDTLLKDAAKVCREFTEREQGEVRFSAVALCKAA
# Histone acetyltransferase RTT109 with Vps75: Histone acetyltransferase RTT109, with Vps75 (Saccharomyces cerevisiae, UniProt Q07794)
# UniProt Q07794, sequence (whole entry, looked up): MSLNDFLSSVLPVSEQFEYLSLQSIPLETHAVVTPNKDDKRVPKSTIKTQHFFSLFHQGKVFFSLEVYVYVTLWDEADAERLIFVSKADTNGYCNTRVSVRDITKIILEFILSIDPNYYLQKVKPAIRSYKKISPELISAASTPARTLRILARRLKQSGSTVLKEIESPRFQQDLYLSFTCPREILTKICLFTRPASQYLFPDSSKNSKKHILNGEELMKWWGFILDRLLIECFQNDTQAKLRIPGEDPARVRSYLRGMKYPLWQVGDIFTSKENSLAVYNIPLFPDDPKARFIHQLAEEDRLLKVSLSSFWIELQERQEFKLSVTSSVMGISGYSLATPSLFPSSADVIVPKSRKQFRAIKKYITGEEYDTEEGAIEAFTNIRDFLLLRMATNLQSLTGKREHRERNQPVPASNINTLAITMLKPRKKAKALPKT
# CYP2C8: Cytochrome P450 2C8 (CYP2C8, Homo sapiens, UniProt P10632)
# UniProt P10632, sequence (whole entry, looked up): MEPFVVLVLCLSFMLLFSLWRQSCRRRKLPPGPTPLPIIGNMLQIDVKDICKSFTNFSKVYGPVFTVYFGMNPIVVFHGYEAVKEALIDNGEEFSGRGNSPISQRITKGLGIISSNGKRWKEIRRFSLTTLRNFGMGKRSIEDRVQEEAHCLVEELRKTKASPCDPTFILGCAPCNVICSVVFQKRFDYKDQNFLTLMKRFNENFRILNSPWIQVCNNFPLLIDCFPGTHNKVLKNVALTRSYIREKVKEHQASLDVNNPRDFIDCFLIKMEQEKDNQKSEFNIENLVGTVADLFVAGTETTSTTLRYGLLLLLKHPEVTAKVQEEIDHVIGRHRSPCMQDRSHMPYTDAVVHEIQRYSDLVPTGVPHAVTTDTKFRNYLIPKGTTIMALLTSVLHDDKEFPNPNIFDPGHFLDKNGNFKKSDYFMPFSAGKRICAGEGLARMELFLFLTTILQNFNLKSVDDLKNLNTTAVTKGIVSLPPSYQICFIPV
# BRD4 BD1: Bromodomain-containing protein 4, BD1 (BRD4, Homo sapiens, UniProt O60885)
# SIRT2: NAD-dependent protein deacetylase sirtuin-2 (SIRT2, Homo sapiens, UniProt Q8IXJ6)
# UniProt Q8IXJ6, sequence (whole entry, looked up): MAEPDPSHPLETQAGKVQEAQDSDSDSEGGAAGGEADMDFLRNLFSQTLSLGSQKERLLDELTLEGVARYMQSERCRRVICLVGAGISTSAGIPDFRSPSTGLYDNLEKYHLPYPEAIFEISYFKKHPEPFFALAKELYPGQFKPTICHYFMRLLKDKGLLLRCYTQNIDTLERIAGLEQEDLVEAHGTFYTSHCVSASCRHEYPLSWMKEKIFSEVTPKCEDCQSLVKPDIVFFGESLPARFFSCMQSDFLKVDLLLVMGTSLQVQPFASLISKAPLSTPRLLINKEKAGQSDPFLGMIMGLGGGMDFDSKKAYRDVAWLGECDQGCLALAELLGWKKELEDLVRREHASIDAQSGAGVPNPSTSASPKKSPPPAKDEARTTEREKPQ
# serine/threonine phosphatase Stp1: serine/threonine phosphatase Stp1 (Staphylococcus aureus, UniProt A0A0H2XF73)
# UniProt Q9WVG6, sequence (whole entry, looked up): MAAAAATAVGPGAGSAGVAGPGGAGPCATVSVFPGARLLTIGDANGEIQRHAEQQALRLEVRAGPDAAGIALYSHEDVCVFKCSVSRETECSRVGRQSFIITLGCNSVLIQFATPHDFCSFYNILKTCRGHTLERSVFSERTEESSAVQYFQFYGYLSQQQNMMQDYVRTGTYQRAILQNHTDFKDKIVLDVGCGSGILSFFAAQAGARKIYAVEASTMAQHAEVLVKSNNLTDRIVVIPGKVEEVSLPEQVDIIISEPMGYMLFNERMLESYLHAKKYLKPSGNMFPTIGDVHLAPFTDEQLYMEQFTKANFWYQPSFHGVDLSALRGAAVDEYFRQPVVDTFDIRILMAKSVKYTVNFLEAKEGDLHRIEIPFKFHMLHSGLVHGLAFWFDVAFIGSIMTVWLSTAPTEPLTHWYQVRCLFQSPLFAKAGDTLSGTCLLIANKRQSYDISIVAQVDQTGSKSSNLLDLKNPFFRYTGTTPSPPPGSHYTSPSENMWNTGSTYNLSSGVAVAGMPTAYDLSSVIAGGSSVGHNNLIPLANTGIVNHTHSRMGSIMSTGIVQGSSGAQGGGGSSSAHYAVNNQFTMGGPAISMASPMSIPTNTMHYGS
# UniProt Q9Y6F1, sequence (whole entry, looked up): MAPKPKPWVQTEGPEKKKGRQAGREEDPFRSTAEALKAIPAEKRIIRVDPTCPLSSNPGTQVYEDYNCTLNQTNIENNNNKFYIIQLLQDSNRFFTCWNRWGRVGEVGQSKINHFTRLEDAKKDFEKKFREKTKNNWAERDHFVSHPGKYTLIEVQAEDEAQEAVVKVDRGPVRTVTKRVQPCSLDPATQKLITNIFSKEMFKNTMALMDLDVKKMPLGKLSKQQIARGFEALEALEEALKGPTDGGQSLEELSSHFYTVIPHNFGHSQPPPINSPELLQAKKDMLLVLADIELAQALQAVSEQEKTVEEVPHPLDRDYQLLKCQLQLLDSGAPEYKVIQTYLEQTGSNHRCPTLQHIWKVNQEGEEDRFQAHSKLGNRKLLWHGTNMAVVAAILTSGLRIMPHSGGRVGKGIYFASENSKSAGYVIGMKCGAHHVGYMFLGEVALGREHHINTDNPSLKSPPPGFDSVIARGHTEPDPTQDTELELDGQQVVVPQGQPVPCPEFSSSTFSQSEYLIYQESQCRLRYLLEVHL
# UniProt P07948, sequence (whole entry, looked up): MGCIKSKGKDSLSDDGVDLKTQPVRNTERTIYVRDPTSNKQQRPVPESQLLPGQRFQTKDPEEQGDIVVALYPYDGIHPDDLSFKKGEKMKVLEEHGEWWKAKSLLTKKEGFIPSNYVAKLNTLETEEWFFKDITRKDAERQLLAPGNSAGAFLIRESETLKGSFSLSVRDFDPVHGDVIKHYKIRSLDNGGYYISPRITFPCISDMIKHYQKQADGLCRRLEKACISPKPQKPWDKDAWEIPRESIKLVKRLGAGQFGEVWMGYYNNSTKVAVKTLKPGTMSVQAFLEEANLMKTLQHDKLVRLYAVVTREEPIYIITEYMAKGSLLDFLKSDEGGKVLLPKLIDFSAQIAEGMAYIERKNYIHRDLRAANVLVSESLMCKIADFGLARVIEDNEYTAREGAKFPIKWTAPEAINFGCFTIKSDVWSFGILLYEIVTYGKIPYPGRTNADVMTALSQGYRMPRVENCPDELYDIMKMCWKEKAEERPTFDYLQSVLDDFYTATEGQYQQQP
# UniProt Q14694, sequence (whole entry, looked up): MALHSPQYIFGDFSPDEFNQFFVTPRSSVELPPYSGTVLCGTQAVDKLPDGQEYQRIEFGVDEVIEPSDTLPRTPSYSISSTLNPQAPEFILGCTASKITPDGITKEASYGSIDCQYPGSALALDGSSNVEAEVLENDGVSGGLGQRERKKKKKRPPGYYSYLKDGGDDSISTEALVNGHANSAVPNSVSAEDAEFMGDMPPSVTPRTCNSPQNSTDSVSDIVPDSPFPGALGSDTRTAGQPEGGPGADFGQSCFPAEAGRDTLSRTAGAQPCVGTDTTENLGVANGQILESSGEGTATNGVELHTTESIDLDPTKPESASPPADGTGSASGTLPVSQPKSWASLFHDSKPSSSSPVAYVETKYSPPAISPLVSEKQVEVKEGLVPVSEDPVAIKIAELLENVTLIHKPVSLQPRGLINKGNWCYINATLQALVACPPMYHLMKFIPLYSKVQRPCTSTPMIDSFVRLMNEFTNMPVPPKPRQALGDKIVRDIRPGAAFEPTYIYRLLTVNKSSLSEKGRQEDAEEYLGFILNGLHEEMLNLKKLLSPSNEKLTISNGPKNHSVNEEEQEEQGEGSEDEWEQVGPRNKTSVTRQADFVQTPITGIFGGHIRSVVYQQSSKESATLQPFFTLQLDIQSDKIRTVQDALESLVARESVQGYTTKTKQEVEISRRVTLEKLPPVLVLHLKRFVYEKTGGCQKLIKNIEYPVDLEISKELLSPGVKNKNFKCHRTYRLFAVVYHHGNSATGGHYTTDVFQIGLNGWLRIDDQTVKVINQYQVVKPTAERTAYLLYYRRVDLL
# UniProt P35222, sequence (whole entry, looked up): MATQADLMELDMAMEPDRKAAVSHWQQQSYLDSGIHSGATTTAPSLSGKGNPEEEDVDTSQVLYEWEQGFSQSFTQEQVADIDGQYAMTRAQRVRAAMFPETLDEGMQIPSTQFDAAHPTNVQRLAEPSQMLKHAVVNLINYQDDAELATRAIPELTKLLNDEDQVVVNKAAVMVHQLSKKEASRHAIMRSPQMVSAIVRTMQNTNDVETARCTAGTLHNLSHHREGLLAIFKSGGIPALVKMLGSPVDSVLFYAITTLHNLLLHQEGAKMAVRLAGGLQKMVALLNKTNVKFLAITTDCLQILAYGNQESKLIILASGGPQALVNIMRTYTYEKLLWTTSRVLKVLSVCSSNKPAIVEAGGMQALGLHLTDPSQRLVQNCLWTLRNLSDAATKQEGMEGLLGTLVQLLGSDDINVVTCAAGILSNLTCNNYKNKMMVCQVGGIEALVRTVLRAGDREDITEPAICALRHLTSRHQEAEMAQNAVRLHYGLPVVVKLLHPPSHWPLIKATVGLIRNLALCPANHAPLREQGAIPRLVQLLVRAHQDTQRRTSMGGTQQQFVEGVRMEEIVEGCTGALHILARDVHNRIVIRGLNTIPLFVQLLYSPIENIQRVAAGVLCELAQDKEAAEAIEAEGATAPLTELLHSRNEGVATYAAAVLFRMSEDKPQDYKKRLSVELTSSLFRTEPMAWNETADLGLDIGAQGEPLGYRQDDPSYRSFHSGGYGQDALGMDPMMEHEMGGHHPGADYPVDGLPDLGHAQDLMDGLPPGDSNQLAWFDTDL
SMILES,target,assay,system,setting,IC50
Cc1ccc2[nH]nc(-c3nnc(Nc4ccc(C)c(C)c4)s3)c2c1,thymidine phosphorylase,"enzyme activity, inhibitor, spectrophotometric",,"pH 7.5, 25 °C",13.4 ± 1.09 µM
N#CC(=Cc1ccncc1)C(=O)Nc1cccc(Cl)c1,UCHL1,"inhibitor, ubiquitin-rhodamine cleavage",,2 h preincubation,> 200 µM
CC(=O)c1cc([N+](=O)[O-])c(Sc2ccc(F)cc2F)s1,"Ubiquitin carboxyl-terminal hydrolase 10 (USP10, Homo sapiens, UniProt Q14694)","deubiquitinase activity, inhibitor, MALDI-TOF DUB",,"30 °C, 35 min pre-incubation",5.97 µM
O=S1(=O)CC(Sc2ccccc2)c2ccccc21 (stereo not drawn),Histone acetyltransferase RTT109 with Vps75,"enzyme activity, inhibitor, HTS, CPM-based, dose response",,,> 125 µM
NC(=O)c1ccc[n+]([C@@H]2O[C@H](COP(=O)([O-])OP(=O)(O)OC[C@H]3O[C@@H](n4cnc5c(N)ncnc54)[C@H](O)[C@@H]3O)[C@@H](O)[C@H]2O)c1,"Poly [ADP-ribose] polymerase tankyrase-1 (TNKS, Homo sapiens, UniProt O95271)","histone H1 ADP-ribosylation, inhibitor, DELFIA",,,400 µM
O=C(O)c1ccc2[nH]c(-c3ccc(OCCC(O)COc4ccc(-c5nc6cc(C(=O)O)ccc6[nH]5)cc4)cc3)nc2c1 (stereo not drawn),"Beta-lactamase (Escherichia coli, UniProt Q8VNN1)","enzyme activity, inhibitor",,,76 ± 18 µM
N#Cc1ccc2nc(Nc3ccc(N4CCOCC4)c(Cl)c3)[nH]c2c1,"Glycogen synthase kinase-3 beta (GSK3B, Homo sapiens, UniProt P49841)","binding, NanoBRET target engagement",HEK293 cells,added: tracer K8,> 30 µM
C[C@@H]1O[C@H](CNS(=O)(=O)c2ccc(C#CC(C)(C)O)s2)[C@@H](O)[C@H](O)[C@@H]1O,"fucose-binding lectin LecB (Pseudomonas aeruginosa, UniProt A0A0H2ZE85)",,,,0.31 ± 0.16 µM
C=CC(C)(C)c1cc(/C=C/C(=O)c2ccc(O)cc2)c(OC)cc1O,"Histone-arginine methyltransferase CARM1 (Mus musculus, UniProt Q9WVG6)","methyltransferase activity, inhibitor",,"added: PABP1 substrate, [3H]AdoMet",28.4 µM and ~30 µM
CC(C)=CCc1c(O)cc(O)c2c1O[C@H](c1ccc(O)cc1)CC2=O,CYP2C8,inhibitor,,pH 7.4,0.6 ± 0.1 µM
CN(C)C(=O)c1cc2cnc(Nc3ccc(-c4cccc5c(=O)cc(N6CCNCC6)oc45)cc3)nc2n1C1CCCC1,"Bromodomain-containing protein 4, BD2 (BRD4, Homo sapiens, UniProt O60885)",inhibitor,,,0.132 µM
c1ccc(-c2noc(NCc3cccs3)n2)cc1,Histone acetyltransferase RTT109 with Vps75,"enzyme activity, inhibitor, HTS, CPM-based, dose response",,,> 125 µM
CC(C)(/C=C(\C#N)C(=O)N1CCC[C@@H](n2nc(-c3ccc(Oc4ccccc4)cc3F)c3c(N)ncnc32)C1)N1CCN(C2COC2)CC1,"Tyrosine-protein kinase Lyn (LYN, Homo sapiens, UniProt P07948)",,,,0.754 µM
CN1C(=O)C(=C(C#N)C(=O)NCc2ccc(Cl)cc2)c2ccccc21,UCHL1,"inhibitor, ubiquitin-rhodamine cleavage",,2 h preincubation,> 200 µM
O=C1CC(N2CCC(c3nc4ccccc4o3)CC2)C(=O)N1c1cc(Cl)cc(Cl)c1 (stereo not drawn),Histone acetyltransferase RTT109 with Vps75,"enzyme activity, inhibitor, HTS, CPM-based, dose response",,,> 125 µM
COc1c(Cl)cccc1Nc1c(-c2ccncc2OC[C@@H]2COCCO2)[nH]c2c1C(=O)NCC2,"Ephrin type-A receptor 7 (EPHA7, Homo sapiens, UniProt Q15375)","kinase activity, inhibitor, TR-FRET",,added: ATP 2 mM,2.6 µM
CCc1ccc(Cn2nnc3c4ccc(F)cc4c(=O)[nH]c32)cc1,"Protein mono-ADP-ribosyltransferase PARP3 (PARP3, Homo sapiens, UniProt Q9Y6F1)",,,,> 10 µM
CN(C)C(=O)c1cc2cnc(Nc3ccc4c(=O)cc(N5CCOCC5)oc4c3)nc2n1C1CCCC1,BRD4 BD1,inhibitor,,,> 10 µM
Cc1cnc(-c2ccc(-c3ccc(NC(=O)Nc4c(F)cc(F)cc4F)cc3F)c3c2C(=O)NC3)[nH]1,"Platelet-derived growth factor receptor alpha (PDGFRA, Homo sapiens, UniProt P16234)","enzyme activity, inhibitor, mobility shift",,added: ATP 1 mM,0.0258 µM
Sc1ncnc2ccccc12,Histone acetyltransferase RTT109 with Vps75,"enzyme activity, inhibitor, HTS, CPM-based, dose response",,,> 125 µM
O=C(Nc1cnccc1Cl)N1CCN(Cc2ccc3c(c2)OC(F)(F)O3)CC1,"Fatty-acid amide hydrolase 1 (Faah, Rattus norvegicus, UniProt P97612)","enzyme activity, inhibitor",rat brain membranes,60 min preincubation,0.0943 µM
CC[C@@H]1[C@H](F)C(=O)N[C@@H]1COc1nccc2cc(C(N)=O)c(OC)cc12,"Mitogen-activated protein kinase kinase kinase 4 (MAP3K4, Homo sapiens, UniProt Q9Y6R4)","ATP-site probe binding, ActivX profiling",THP-1 cell lysate,Lys2 site,> 5 µM
O=c1nc(SCc2cc(F)cc(C(F)(F)F)c2)nc(SCc2ccc3sccc3c2)[nH]1,"DNA topoisomerase 2-alpha (TOP2A, Homo sapiens, UniProt P11388)","ATPase activity, inhibitor, competitive ATPase",,added: 1 mM ATP,7.1 µM
Cc1ccc(Cn2cc(COc3cccc(Cc4cnc(NC(=O)CSc5nc(C)cc(C)n5)s4)c3)nn2)cc1,SIRT2,inhibitor,,,0.16 ± 0.04 µM
O=C(Nc1nc(-c2ccccc2)ns1)c1cccs1,Histone acetyltransferase RTT109 with Vps75,"enzyme activity, inhibitor, HTS, CPM-based, dose response",,,> 125 µM
NC/C(=C\F)COc1cccc(Cn2c(=S)[nH]c(=O)c3[nH]cnc32)c1,CYP2C8,"enzyme activity, inhibitor",,CYP2C8 screen,> 10 µM
COC(=O)c1cccc(-c2nc(-c3c(C)ncc4c3CCNC4)no2)c1,"Catenin beta-1, with BCL9 HD2 (CTNNB1, Homo sapiens, UniProt P35222)","BCL9 binding, inhibitor, AlphaScreen",,,4.66 µM
CN(C)C(=O)c1cc2cnc(Nc3ccc4c(=O)cc(N5CCNCC5)oc4c3)nc2n1C1CCCC1,BRD4 BD1,inhibitor,,,0.021 µM
Cc1ccc2[nH]nc(-c3nnc(Nc4ccc(Cl)c(Br)c4)s3)c2c1,thymidine phosphorylase,"enzyme activity, inhibitor, spectrophotometric",,"pH 7.5, 25 °C",17.3 ± 0.49 µM
O=C(O)[C@H]1O[C@@H](Oc2cc3oc(-c4ccccc4)cc(=O)c3c(O)c2O)[C@H](O)[C@@H](O)[C@@H]1O,serine/threonine phosphatase Stp1,"phosphatase activity, inhibitor",,,> 224 µM
COc1ccc(-c2ccc3ncc4c(c3c2)n([C@@H]2CCN(C)CC2(F)F)c(=O)n4C)cn1,"Dual specificity protein kinase CLK1 (CLK1, Homo sapiens, UniProt P49759)","enzyme activity, inhibitor",,,0.44 ± 0.0075 µM
O=C1CC(Nc2ccccc2)C(=O)N1c1ccc(Br)cc1 (stereo not drawn),Histone acetyltransferase RTT109 with Vps75,"enzyme activity, inhibitor, HTS, CPM-based, dose response",,,> 125 µM
CN(C)C(=O)c1cc2cnc(Nc3cccc4c(=O)cc(N5CCOCC5)oc34)nc2n1C1CCCC1,BRD4 BD1,inhibitor,,,> 10 µM
Cn1nc2c(=O)n(C3CC3)ncc2c1[C@](O)(c1cnc(C(F)(F)F)c(Cl)c1)C(F)(F)F,"Dihydroorotate dehydrogenase (Canis lupus familiaris, UniProt A0A8I3MWX2)","enzyme activity, inhibitor, DCIP reduction",,,> 30 µM
CC(=O)c1cnc2ccc(-c3cc(Cl)c(O)c(Cl)c3)nc2c1N[C@H]1CC[C@H](CN(C)C)CC1,"Receptor-like protein kinase FERONIA (FER, Arabidopsis thaliana, UniProt Q9SCZ4, Y610A)","kinase activity, inhibitor, ADP-Glo",,,> 100 µM
CCCCCCCCCCCCNC(=S)NCCCC[C@H](NC(=O)OCc1ccccc1)C(=O)N[C@@H](CCCCN)C(=O)N[C@@H](CCCNC(=N)N)C(N)=O,SIRT2,"enzyme activity, inhibitor",,,0.5 ± 0.08 µM
N#CC(=Cc1ccccc1Cl)C(=O)NCc1ccccc1,UCHL1,"inhibitor, ubiquitin-rhodamine cleavage",,2 h preincubation,> 200 µM
Cc1cc(OC(C)C)ccc1C(=O)C(C)(C)NC(=O)c1sccc1C,"succinate-cytochrome c oxidoreductase (Phaeosphaeria nodorum, UniProt A0A7U2EY10+A0A7U2FCV0+A0A7U2I8M4)","activity, succinate-cytochrome c oxidoreductase, inhibitor","Septoria nodorum, mitochondrial fraction",25 °C,0.0198 µM
CN(C)C(=O)c1cc2cnc(Nc3cc(C(F)(F)F)c(-c4ccc5c(=O)cc(N6CCOCC6)oc5c4)cn3)nc2n1C1CCCC1,BRD4 BD1,inhibitor,,,> 10 µM
CN1CCN(c2ccc(Nc3ncc4cc(C#N)c(=O)n(C5CCCC5)c4n3)cc2)CC1,"Tyrosine-protein kinase Tec (TEC, Homo sapiens, UniProt P42680)",,,,5.63 µM
O=C(O)/C=C/c1ccc(O)cc1,"Angiotensin-converting enzyme (ACE, Oryctolagus cuniculus, UniProt P12822)","enzyme activity, inhibitor",,"2 h, pH 8.3, 37 °C, added: hippuryl-histidyl-leucine",559 ± 41.7 µM
COc1ccc(-c2nnc(S)[nH]2)cc1,Histone acetyltransferase RTT109 with Vps75,"enzyme activity, inhibitor, HTS, CPM-based, dose response",,,55 ± 2 µM
CCCC(C)C(=O)Nc1ccc(Cl)c(Cl)c1 (stereo not drawn),serine/threonine phosphatase Stp1,"phosphatase activity, inhibitor",,,> 384 µM
CCN(c1ccccc1)S(=O)(=O)c1ccc(Cl)c(C(=O)Nc2ccccc2N2C(=O)CC(C)(C)C2=O)c1,"N-myristoyltransferase (Cryptosporidium parvum, UniProt Q5CV46)","enzyme activity, inhibitor",,,> 125 µM
N=C(N)c1ccc(OCCCOc2ccc(C(=N)N)cc2)cc1,"Serine protease 1 (PRSS1, Bos taurus, UniProt P00760)","enzyme activity, inhibitor",,,7 ± 1 µM
CCCCCCCCCCCCNC(=S)NCCCC[C@H](NC(=O)C1CCCCC1)C(=O)N[C@H](C)C(=O)N[C@@H](CCCNC(=N)N)C(N)=O,SIRT2,"enzyme activity, inhibitor",,,4.9 ± 1 µM
Brc1cccc2nsnc12,Histone acetyltransferase RTT109 with Vps75,"enzyme activity, inhibitor, HTS, CPM-based, dose response",,,> 125 µM
CC1(C)CC[C@]2(C(=O)O)CC[C@]3(C)C(=CC[C@@H]4[C@@]5(C)CC[C@H](O)C(C)(C)[C@@H]5CC[C@]43C)[C@@H]2C1,serine/threonine phosphatase Stp1,"enzyme activity, inhibitor",,added: pNPP,> 219 µM
